Assay results pooled from the literature.
Survival motor neuron protein: Survival motor neuron protein 1-294 (Homo sapiens, UniProt Q16637)
Sequence of UniProt Q16637 (whole entry, looked up): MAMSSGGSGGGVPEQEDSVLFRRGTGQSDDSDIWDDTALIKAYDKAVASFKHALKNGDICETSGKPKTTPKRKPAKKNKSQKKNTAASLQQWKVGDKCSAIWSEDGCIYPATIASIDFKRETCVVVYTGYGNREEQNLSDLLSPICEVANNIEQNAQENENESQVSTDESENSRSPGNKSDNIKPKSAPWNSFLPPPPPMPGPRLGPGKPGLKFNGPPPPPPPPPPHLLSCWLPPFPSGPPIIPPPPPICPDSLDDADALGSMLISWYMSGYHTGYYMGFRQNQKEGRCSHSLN
Cdca7: Cdca7 241-382 (Mus musculus, UniProt Q9D0M2)
Sequence of UniProt Q9D0M2 (whole entry, looked up): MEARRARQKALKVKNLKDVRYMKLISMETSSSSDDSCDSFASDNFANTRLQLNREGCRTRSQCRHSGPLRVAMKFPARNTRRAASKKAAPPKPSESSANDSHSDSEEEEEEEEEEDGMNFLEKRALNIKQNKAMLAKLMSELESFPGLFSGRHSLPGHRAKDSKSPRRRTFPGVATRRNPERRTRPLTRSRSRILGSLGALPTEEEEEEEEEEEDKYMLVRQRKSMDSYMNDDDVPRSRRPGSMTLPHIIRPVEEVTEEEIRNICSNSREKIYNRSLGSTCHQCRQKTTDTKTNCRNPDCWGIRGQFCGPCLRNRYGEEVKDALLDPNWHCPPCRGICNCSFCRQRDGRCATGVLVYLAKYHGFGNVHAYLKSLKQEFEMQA
LYZ: LYZ 19-147 (Gallus gallus, UniProt P00698)
Sequence of UniProt P00698 (whole entry, looked up): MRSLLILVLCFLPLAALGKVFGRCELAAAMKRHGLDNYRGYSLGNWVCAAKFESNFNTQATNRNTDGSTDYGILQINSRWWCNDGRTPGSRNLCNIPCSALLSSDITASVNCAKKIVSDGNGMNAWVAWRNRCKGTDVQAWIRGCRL
IHF alpha/IHF beta: IHF alpha/IHF beta (Escherichia coli)
T1: MBNL1 ZF1-2 duplicated; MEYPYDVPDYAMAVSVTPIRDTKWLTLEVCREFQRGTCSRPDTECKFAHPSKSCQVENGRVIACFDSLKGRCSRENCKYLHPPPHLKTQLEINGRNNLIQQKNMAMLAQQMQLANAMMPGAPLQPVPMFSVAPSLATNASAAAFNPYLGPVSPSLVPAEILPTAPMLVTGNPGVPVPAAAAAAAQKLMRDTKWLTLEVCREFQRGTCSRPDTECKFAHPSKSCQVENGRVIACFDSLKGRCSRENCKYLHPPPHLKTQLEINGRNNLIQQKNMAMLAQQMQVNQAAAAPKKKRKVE
T2: MBNL1 ZF3-4 duplicated; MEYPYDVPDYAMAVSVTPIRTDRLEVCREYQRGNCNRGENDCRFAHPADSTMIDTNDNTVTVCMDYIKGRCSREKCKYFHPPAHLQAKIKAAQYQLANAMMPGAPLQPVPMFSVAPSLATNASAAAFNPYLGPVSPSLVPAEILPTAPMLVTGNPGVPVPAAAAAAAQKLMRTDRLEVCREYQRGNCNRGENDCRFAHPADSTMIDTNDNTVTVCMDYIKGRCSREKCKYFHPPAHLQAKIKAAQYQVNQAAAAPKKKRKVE
Sequence of UniProt O94992 (whole entry, unmodified, looked up): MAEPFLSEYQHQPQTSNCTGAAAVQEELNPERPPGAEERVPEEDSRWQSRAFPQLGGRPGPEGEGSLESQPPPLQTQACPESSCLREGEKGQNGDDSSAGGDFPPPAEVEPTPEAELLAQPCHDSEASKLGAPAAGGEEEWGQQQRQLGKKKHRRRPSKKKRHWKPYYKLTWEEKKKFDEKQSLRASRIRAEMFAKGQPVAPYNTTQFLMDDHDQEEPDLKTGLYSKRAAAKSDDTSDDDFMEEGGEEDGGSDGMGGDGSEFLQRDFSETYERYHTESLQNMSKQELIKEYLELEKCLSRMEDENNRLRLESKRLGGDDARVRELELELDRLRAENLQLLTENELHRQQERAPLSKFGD
Sequence of UniProt Q8TEQ6 (whole entry, looked up): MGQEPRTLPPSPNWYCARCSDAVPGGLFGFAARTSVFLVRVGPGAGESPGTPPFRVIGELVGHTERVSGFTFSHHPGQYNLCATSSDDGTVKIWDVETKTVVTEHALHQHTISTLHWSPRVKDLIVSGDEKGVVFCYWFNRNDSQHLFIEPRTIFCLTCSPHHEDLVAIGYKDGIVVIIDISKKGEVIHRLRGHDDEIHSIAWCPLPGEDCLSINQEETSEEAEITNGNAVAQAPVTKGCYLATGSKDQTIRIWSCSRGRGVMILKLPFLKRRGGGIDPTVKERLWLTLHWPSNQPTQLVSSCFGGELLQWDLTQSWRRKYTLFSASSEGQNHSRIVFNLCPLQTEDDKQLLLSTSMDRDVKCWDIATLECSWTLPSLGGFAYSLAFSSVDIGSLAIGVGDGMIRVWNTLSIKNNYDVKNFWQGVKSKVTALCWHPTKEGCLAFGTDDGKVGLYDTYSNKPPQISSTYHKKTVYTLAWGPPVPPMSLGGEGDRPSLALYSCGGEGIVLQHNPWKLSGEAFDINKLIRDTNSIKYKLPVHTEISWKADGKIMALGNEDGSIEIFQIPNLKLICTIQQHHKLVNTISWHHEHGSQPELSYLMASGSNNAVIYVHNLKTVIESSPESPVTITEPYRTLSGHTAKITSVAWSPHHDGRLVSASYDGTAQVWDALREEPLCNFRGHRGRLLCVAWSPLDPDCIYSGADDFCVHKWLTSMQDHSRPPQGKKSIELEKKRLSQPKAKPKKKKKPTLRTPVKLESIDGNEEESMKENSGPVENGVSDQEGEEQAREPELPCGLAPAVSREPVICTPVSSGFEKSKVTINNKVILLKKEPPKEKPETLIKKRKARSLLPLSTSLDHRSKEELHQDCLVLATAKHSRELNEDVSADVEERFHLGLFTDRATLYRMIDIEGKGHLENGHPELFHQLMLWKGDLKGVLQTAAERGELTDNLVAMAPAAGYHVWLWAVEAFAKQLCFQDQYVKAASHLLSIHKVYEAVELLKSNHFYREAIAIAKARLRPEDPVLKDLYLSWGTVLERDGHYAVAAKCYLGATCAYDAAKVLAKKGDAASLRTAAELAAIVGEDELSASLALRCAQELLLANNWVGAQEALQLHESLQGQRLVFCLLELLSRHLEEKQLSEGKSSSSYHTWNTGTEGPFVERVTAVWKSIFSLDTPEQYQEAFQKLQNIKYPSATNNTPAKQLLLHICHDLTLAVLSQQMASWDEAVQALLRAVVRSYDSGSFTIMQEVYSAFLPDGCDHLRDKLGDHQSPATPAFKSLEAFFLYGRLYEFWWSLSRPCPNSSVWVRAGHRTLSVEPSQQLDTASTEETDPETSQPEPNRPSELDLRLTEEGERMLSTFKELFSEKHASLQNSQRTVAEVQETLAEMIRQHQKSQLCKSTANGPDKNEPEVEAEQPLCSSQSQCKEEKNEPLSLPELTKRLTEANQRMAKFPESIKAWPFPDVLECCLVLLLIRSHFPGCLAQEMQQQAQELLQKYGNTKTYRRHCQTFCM
Sequence of UniProt Q01130 (whole entry, looked up): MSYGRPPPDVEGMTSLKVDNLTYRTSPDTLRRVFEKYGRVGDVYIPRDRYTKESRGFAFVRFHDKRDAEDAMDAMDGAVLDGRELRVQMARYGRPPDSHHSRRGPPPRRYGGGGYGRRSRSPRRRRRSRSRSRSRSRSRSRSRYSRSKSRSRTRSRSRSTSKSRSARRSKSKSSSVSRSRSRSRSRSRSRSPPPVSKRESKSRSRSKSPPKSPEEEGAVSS
Sequence of UniProt Q9UKA9 (whole entry, looked up): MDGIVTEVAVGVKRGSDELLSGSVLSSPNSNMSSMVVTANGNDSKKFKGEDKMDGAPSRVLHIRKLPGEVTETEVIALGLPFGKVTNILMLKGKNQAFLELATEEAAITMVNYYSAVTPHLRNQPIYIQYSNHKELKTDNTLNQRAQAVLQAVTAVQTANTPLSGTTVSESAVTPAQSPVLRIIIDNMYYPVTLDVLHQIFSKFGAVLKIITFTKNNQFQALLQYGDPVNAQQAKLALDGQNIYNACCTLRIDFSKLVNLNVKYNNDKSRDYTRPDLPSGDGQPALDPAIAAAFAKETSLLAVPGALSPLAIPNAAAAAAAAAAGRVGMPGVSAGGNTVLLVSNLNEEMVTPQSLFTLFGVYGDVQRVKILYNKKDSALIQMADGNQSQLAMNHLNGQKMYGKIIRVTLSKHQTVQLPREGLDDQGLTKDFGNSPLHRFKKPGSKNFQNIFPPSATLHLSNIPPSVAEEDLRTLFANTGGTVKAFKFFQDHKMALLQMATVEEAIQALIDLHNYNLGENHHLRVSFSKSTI
Sequence of UniProt O43248 (whole entry, looked up): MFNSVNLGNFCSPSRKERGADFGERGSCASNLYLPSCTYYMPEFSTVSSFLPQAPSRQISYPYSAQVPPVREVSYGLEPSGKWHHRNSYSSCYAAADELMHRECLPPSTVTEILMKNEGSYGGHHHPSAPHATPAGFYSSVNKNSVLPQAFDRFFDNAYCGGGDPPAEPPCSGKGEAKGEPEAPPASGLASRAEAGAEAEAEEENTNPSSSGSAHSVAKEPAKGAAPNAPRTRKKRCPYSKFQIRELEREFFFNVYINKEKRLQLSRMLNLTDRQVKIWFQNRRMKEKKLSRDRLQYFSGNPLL
Sequence of UniProt P27695 (whole entry, unmodified, looked up): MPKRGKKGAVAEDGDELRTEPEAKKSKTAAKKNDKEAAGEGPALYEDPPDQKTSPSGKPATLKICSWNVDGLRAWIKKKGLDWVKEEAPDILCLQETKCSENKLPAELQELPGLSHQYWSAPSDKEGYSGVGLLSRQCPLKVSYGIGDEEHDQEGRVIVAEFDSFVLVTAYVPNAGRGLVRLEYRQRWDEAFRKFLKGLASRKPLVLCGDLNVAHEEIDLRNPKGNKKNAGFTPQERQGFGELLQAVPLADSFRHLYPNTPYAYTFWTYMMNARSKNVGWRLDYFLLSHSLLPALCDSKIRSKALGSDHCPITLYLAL
Sequence of UniProt P16914 (whole entry, looked up): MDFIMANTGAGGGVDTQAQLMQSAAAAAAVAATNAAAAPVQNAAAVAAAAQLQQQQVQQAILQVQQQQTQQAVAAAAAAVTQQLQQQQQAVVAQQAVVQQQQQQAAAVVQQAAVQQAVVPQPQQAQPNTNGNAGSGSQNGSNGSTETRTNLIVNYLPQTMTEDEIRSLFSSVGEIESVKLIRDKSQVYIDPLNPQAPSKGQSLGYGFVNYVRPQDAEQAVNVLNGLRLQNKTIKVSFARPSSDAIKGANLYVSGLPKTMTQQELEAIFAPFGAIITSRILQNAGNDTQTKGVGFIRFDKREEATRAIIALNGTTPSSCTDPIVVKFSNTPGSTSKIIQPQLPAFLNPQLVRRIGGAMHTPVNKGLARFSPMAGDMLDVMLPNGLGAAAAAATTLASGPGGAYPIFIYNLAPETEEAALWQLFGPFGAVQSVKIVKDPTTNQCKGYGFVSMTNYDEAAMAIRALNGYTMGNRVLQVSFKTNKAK
Sequence of UniProt O95639 (whole entry, looked up): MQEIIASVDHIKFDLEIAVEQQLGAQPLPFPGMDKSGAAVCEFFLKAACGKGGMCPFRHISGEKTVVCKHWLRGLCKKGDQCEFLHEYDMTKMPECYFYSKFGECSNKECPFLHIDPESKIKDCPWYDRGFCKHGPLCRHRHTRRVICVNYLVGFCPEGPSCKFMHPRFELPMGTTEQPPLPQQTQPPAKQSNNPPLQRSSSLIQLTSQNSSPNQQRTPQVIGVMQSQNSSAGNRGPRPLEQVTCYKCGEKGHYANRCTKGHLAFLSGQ

| Oligonucleotide | target | test | system | setting | binding |
| --- | --- | --- | --- | --- | --- |
| UGUGUAAGUGAGUACGGUCGCUGUGGUGUGAUGAUGGGUGUGG (ssRNA) | elav full length assumed (Drosophila melanogaster, UniProt P16914) | EMSA | RNA |  | no binding |
| RNA 1 GGAGGAUGUUAAUUGGCGUG / RNA 2 CACGCCAAUUAACAUCCUCC (dsRNA) | EIF2AK2 1-185 F41W (Homo sapiens, UniProt P19525) | tryptophan fluorescence anisotropy | double-stranded RNA | 1 µM | binds |
| GGGAACCGGCCCUCACCACGGCAAGCU (ssRNA) | Survival motor neuron protein | competition | RNA | complete loss | no binding |
| GCGACGCCCTGTCGGTGAGACTAGT (ssDNA) | Cdca7 | EMSA | single-stranded DNA |  | no binding |
| UUUUGCUUUUUUUUUUUGCUUUU (ssRNA) | T1, MBNL1 ZF1-2 duplicated | EMSA | RNA |  | binds |
| GGGAAUGGAUCCACAUCUACGAAUUCAUCAGGGCUAAAGAGUGCAGAGUUACUUAGUUCACUGCAGACUUGACGAA (structured RNA) | LYZ | filter binding | folded RNA |  | binds |
| CGATGCCTGTCGGTGAGACCGTTTGCATC (ssDNA) | Cdca7 | EMSA | single-stranded DNA |  | no binding |
| CGGGTGTCGGGGCTGGCTTAACTATGCGGCATCAGAGCAGATTGTACTGAGAGTGCACCATATGCGGTGTGAAATACCGCACAGATGCGT (ssDNA) | RAD51 full length assumed K133A (Homo sapiens, UniProt Q06609) | filter binding | single-stranded DNA |  | binds |
| DNA 1 TGGCCAAAAAAGCATTGCTTATCAATTTGTTGCACC / DNA 2 TGGTGCAACAATATGATAAGCTTTGCTTTTTTGGCC (dsDNA; 5' T overhangs; two 2-bp mismatches) | IHF alpha/IHF beta | FRET, laser T-jump | double-stranded DNA | KCl 100 mM | binds |
| CAACGCCCUGUCGGUGAGAAACCGUUUGCA (ssRNA) | Cdca7 | EMSA | RNA |  | no binding |
| RNA 1 GGAGGAUGUUAAUUGGCGUGUCUUGUCUGCAACGGUAUUC / RNA 2 GAAUACCGUUGCAGACAAGACACGCCAAUUAACAUCCUCC (dsRNA) | EIF2AK2 1-185 F131W (Homo sapiens, UniProt P19525) | tryptophan fluorescence anisotropy | double-stranded RNA | 1 µM | binds |
| GGCGAUCUGGCUGCGACAUCUGUCACCCCAUUGAUCGCC (ssRNA; hairpin) | HEXIM1 full length assumed K152I/H153L/R154A/R155A (Homo sapiens, UniProt O94992) | EMSA | folded RNA |  | no binding |
| GTGTCTCTGGTTTTATGACCATTTTGACCAG (dsDNA) | HOXC11 1-304 (Homo sapiens, UniProt O43248) | EMSA | double-stranded DNA, one strand shown |  | binds |
| GGGUAACCAUUAUAACCUGCAAUAAACAACUUAACAACAC (ssRNA) | CPSF4 full length assumed (Homo sapiens, UniProt O95639) | UV cross-linking | RNA | within CPSF complex | binds |
| GCUGCUGUUCGCUGCUG (ssRNA; hairpin) | T2, MBNL1 ZF3-4 duplicated | EMSA | folded RNA |  | binds |
| DNA 1 GCTGATCAACGCCCTGTCGGTGAGACTAGTACATG / DNA 2 CATGTACTAGTCGAACCGTTTGCGTTGATCAGC (DNA; annealed duplex) | Cdca7 | EMSA | folded DNA |  | binds |
| GAAACGGGACGGCACCUCUUUUAACCCUUGAAGUCACUGCCCGUUUCGAGAGUUUCUCAACUCGAAUAACUAAAGCCAACGUGAACUUUUGCGGAUCUCCAGGAUCCGCUUUUUUUU (structured RNA) | hfq full length assumed Y25W (Escherichia coli, UniProt P0A6X3) | tryptophan fluorescence quenching | folded RNA |  | binds |
| DNA 1 TGGCCAAAAAAGCATTGCTTATCAATTTGTTGCACC / DNA 2 TGGTGCAACAAATTGATAAGCAATGCTTTTTTGGCC (dsDNA) | IHF alpha/IHF beta | CD thermal melting | double-stranded DNA | KCl 100 mM | binds |
| GGGCGGCUAAAGAGUGCAGAGUUACUUAGUUCACUGCAGACGCCC (structured RNA; stem, loops L1 and L2) | LYZ | filter binding | folded RNA |  | binds |
| GAAACGGGACGGCACCUCUUUUAACCCUUGAAGUCACUGCCCGUUUCGAGAGUUUCUCAACUCGUUUUUCUAUUGCCAACGUGAACUUUUGCGGAUCUCCAGGAUCCGCUUUUUUUU (structured RNA) | hfq full length assumed F42W (Escherichia coli, UniProt P0A6X3) | tryptophan fluorescence quenching | folded RNA |  | binds |
| GGGCUCACCACGCACGUGCGAACUUACUCGUGGAACCGGCCCUCACCACGGCAAGCU (structured RNA) | Survival motor neuron protein | competition | folded RNA | little effect | binds |
| GTCGACCAGCTGAGTCGACCAGCTG (ssDNA; N6-methyl-dA) | YTHDC2 1268-1430 (Homo sapiens, UniProt Q9H6S0) | pull-down | single-stranded DNA |  | binds |
| TTTTTTTTTTTTTTTTTTTTTTT (ssDNA; unstructured) | APEX1 34-318 del1-33 (Homo sapiens, UniProt P27695) | SPR | single-stranded DNA |  | no binding |
| ACCCCUUGACAGUCUCUACGGAGACUGG (RNA; 3' stem-loop) | GEMIN5 1-739 (Homo sapiens, UniProt Q8TEQ6) | ITC | folded RNA |  | no binding |
| AGGGGGCCGUGGGGUGGGAGCUGGGG (G-quadruplex RNA; G4) | NDUFV1 full length assumed (Homo sapiens, UniProt P49821) | EMSA | folded RNA | 100 nM | binds |
| GCAGCCCAUGAUGGCUGAAUCCUGAAAACCAGCCCGCUGGUGGGGGUCCAGCUUGAUGUCUUUGCAGC (structured RNA) | Sbp2 full length assumed (Drosophila melanogaster, UniProt Q9VSH1) | EMSA | folded RNA |  | no binding |
| CAACGCCCTGTCGGTGAGAAACCGTTTGCA (DNA; hairpin) | Cdca7 | EMSA | folded DNA |  | binds |
| CUAGGCGCAGUUGUGUAGCAGUUGAGUAAUGCUGGUUAGCUGUUAAGGUGGCGUGUUGCAGUGCAGAGUGCUUGGCUGUUUCCUGUUUUCUCCCGAUUGCUCCUGUGUAA (RNA; long stem loop) | SRSF2 1-221 (Homo sapiens, UniProt Q01130) | RNase footprinting | folded RNA |  | binds |
| ACTAGTCGAACCGTTTGCGTCGC (ssDNA) | Cdca7 | EMSA | single-stranded DNA |  | no binding |
| GCCCUCUCUCCCGCCGCCCGCCCGCCACCCGCCAGCCCAGGUGCCCGCCCGCCAGUCAGCUAGUCCGUCGGUCCGCGCGUCCCUCUGUCCCGGAGCCCGCAGAUCGCGACCCAGAGCGCGCGGGGCCGAGAGCCGAGAGACAGUCCCGGGCGCAGCGCGGAGCUCCGGGCCCCGAGAUCC (structured RNA) | PTBP2 full length assumed (Homo sapiens, UniProt Q9UKA9) | EMSA | folded RNA |  | binds |

A few entries again:
| Oligonucleotide | target | test | system | setting | binding |
| --- | --- | --- | --- | --- | --- |
| AGGGGGCCGUGGGGUGGGAGCUGGGG (G-quadruplex RNA; G4) | NDUFV1 full length assumed (Homo sapiens, UniProt P49821) | EMSA | folded RNA | 100 nM | binds |
| GGGAACCGGCCCUCACCACGGCAAGCU (ssRNA) | Survival motor neuron protein | competition | RNA | complete loss | no binding |
